Measurements of several laboratories.
Every numbered part comes from another study and shows a few of its results, in no order. Changes are numbered by the printed parent chain.

Sample 1 — technique: DHFR PCA, deep sequencing; matrix: yeast; added: (+)-ABA 1.4 µM; reference: wild-type fitted maximum; direction: higher = stronger binding; measurement: relative binding score
Target: ABI1, truncated, D143A, DHFR fusion (Arabidopsis thaliana)
Notes: methotrexate growth selection, single substitutions
Starting sequence: PYL1, truncated, DHFR fusion (Arabidopsis thaliana); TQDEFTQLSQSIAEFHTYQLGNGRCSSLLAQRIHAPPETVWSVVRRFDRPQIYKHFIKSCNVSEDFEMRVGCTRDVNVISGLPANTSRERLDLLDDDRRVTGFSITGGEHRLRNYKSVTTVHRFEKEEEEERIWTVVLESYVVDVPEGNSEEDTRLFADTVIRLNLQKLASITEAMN
Change = V100R; result = 0.347%
Change = P36W; result = 6.48%
Change = G108M; result = -4.77%
Change = G148W; result = -3.18%
Change = A175V; result = 29.2%
Change = R24W; result = 1.25%
Change = Q167T; result = 49.4%
Change = G108K; result = -5.82%
Change = L8F; result = 46.6%
Change = V62L; result = 48%
Change = T39W; result = 7.09%
Change = K116T; result = 33.4%
Change = Q19V; result = 60.1%
Change = N22D; result = 75.6%
Change = I133N; result = 72.4%
Change = D65S; result = 38.6%

Sample 2 — target: CCNE2, cyclin fold, Cln2 fusion (human); technique: yeast growth competition, sequencing; matrix: yeast; notes: strong parent motif; reference: not given; direction: higher = stronger binding; measurement: normalised enrichment score
Starting sequence: INSM1 docking peptide (human); PKAIRKLHFEDEV; partner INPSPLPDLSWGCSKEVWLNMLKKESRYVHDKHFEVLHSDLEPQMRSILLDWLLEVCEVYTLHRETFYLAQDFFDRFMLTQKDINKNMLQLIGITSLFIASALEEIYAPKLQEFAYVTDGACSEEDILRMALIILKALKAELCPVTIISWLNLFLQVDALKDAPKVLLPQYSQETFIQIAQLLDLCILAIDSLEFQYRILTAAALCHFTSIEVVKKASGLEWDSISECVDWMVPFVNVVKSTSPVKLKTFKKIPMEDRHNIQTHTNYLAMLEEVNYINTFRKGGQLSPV
Change = PWAIRKLHFEDEV [K2W]; result = 0.585
Change = PKAIRKLHTEDEV [F9T]; result = 0.152
Change = PDAIRKLHFEDEV [K2D]; result = 0.759
Change = PKAIRKLHQEDEV [F9Q]; result = 0.32
Change = PKAIRKLEFEDEV [H8E]; result = 1.32
Change = PKAIRKLHFEDHV [E12H]; result = 2.02
Change = PKIIRKLHFEDEV [A3I]; result = 0.727
Change = PKAIRPLHFEDEV [K6P]; result = 0.0187
Change = PKAIRKPHFEDEV [L7P]; result = 0.026
Change = PKAIRKLHFETEV [D11T]; result = 1.05
Change = PKAIRKLHFELEV [D11L]; result = 1.38
Change = PKTIRKLHFEDEV [A3T]; result = 0.513
Change = PKLIRKLHFEDEV [A3L]; result = 0.212
Change = PKAIRKLHFRDEV [E10R]; result = 1.08
Change = PKRIRKLHFEDEV [A3R]; result = 0.288
Change = PKAIRDLHFEDEV [K6D]; result = 0.0497
Change = PKAIRKLHFEEEV [D11E]; result = 1.62
Change = PKAIRKLHYEDEV [F9Y]; result = 0.546
Change = PKAWRKLHFEDEV [I4W]; result = 0.256
Change = PKAIRKLHFEYEV [D11Y]; result = 1.53
Change = PKAIRKLHCEDEV [F9C]; result = 0.144
Change = PKAIRKLAFEDEV [H8A]; result = 0.994

Sample 3 — technique: RNA Bind-n-Seq; molecule type: RNA; matrix: in vitro; concentration: 365 nM; reference: no-protein control; direction: higher = stronger binding; measurement: RBNS enrichment (R)
Target: RNA binding protein fox-1 homolog 2, RRM domain, GST-SBP tag (RBFOX2, Homo sapiens, UniProt O43251-10, residues 100-194)
Notes: natural RNA segment, single round, ends assumed
Constant ends, left off below: GGGAGUUCUACAGUCCGACGAUC … UGGAAUUCUCGGGUGCCAA
Target sequence (chain): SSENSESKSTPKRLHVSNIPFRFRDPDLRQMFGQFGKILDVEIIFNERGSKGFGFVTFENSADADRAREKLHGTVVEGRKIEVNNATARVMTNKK
Oligonucleotide = UUUUAUUCACAUACAGUGAUGAAUCUUGCAUUGCAAAUUCAAAGUCUAAGUUAACAGUCUCCUAAAGUGACCACCUACAUUUCUUAUAAUCCAGGUAGUUCCUGUCAUGU; result = 0.324
Oligonucleotide = AGCCAACUUGUGUUCUGGGUUUGAAAAAGACCCACCACAAAUGCUUUUUCUAUUUUCUGAUUUAAAAGUCGCUUUUGAAUAUGACCAUGAGAAACCAAGAAAUGCUGCUU; result = 0.718
Oligonucleotide = CGAGCGAGGAGCUGAUGAGUCCCUUGCAGCCUCCAGUCUGACCCAGAGUGGCAGGUAUCCUGGCAUGGCCCAGCCUGCCCUACCCCGAGGAGACUUCCAGGAAGACACGU; result = 0.359
Oligonucleotide = ACAGCUGACAUGCCUCACUCAGAGAGGGGAAAGGCACUGGGCAGCCUUGAAGGAAGCCCUUCUCUCCCAGACCAAGACAAAGCAGAUUGCAUAGAGGUUCAAGUUCAAAG; result = 0.384
Oligonucleotide = UGCCUUUCUUCAUUGCUGAUUUUAAUCUGUAUCCUUUCACUGUAAUAAACUGUAACUAUGAGUGCAACACUUUGCUGAGUUCUGUGAGUCCUUCUAGUGAAUCACUGAAC; result = 0.488
Oligonucleotide = UGGCUGGCCUAAUCCCCAUGAUGAUUCCAGAAUAAUCUUGCAAAUUGGAUCAUGGCAGGUGCUUGUUCAAAGCCCUUUCUUGUUGCCUCUGCCAUCUGGGUGAAGUCUAG; result = 0.303
Oligonucleotide = CUGUUCCCUUGAUAGCUUCGGGUCAUUGGUGGCAGCUCAUGUCCUCGGCGCUCCUUGUGUGGAGGCCAUUCUUUUUUCAAUGGGUAUCACAUGGUUUUGCCAUCCCUAAG; result = 0.396
Oligonucleotide = AGCCAGGAUUCUGGCCCAGGGCGCCUCCUCCCGACUGAGCAGAGCCAGACAGACAUUCCUGAGGGGCCCAGAAAUGGGGCCGGUUGGAGGGCAGGGGCUCUCCCUAGGGG; result = 0.384

Sample 4 — target: UBE2J1 UBC core domain (UniProt Q9Y385); technique: yeast two-hybrid; matrix: yeast; notes: mostly zero background; reference: not given; direction: higher = stronger interaction; measurement: lacZ reporter activity
B1: RNF183 RING domain (UniProt Q96D59); chain EQQGRELEAECPVCWNPFNNTFHTPKMLDCCHSFCVECLAHLSLVTPARRRLLCPLCRQPTVLASGQP
B2: ANAPC11 RING domain (UniProt Q9NYG5); chain GICRMAFNGCCPDCKVPGDDCPLVWGQCSHCFHMHCILKWLHAQQVQQHCPMCRQEWKFKE
B3: TRIM60 RING domain (UniProt Q495X7); chain ALVNLQEESSCPICLEYLKDPVTINCGHNFCRSCLSVSWKDLDDTFPCPVCRFCFPYKSFRR
B4: TRIM26 RING domain (UniProt Q12899); chain PLRSLEEEVTCSICLDYLRDPVTIDCGHVFCRSCTTDVRPISGSRPVCPLCKKPFKKENIRP
B5: TRIM31 RING domain (UniProt Q9BZY9); chain FVNKLQEEVICPICLDILQKPVTIDCGHNFCLKCITQIGETSCGFFKCPLCKTSVRKNAIRF
B6: RNF2 RING domain (UniProt Q99496); chain SPRSLHSELMCPICLDMLKNTMTTKECLHRFCADCIITALRSGNKECPTCRKKLVSKRSLR
B7: MKRN2 RING domain (UniProt Q9H000); chain FAFQASQDKVCSICMEVILEKASASERRFGILSNCNHTYCLSCIRQWRCAKQFENPIIKSCPECRVISEFVIPSV
B8: RNF31 RING domain (UniProt Q96EP0); chain AFLRRLLAQECAVCGWALPHNRMQALTSCECTICPDCFRQHFTIALKEKHITDMVCPACGRPDLTDDTQLL
Target sequence (chain): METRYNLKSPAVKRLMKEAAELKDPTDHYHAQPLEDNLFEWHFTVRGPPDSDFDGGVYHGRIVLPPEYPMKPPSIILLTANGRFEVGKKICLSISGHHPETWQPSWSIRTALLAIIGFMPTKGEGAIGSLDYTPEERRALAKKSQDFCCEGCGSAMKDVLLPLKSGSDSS
Molecule = KPDKMEETLTCIICQDLLHDCVSLQPCMHTFCAACYSGWMERSSLCPTCRCPVERICKNH (CHFR RING domain (UniProt Q96EP1)); result = 0
Molecule = B1 (RNF183 RING domain); result = 0
Molecule = B2 (ANAPC11 RING domain); result = 0
Molecule = B3 (TRIM60 RING domain); result = 0
Molecule = B4 (TRIM26 RING domain); result = 0
Molecule = B5 (TRIM31 RING domain); result = 0
Molecule = PEELAVNNDDCAICWDSMQAARKLPCGHLFHNSCLRSWLEQDTSCPTCRMSLNIADNNR (AMFR RING domain (UniProt Q9UKV5)); result = 0
Molecule = FVKTVEDKYKCEKCHLVLCSPKQTECGHRFCESCMAALLSSSSPKCTACQESIVKDKVF (TRAF3 RING domain (UniProt Q13114)); result = 0
Molecule = B6 (RNF2 RING domain); result = 0
Molecule = LGTKLEAKYLCSACRNVLRRPFQAQCGHRYCSFCLASILSSGPQNCAACVHEGIYEEGIS (TRAF2 RING domain (UniProt Q12933)); result = 0
Molecule = B7 (MKRN2 RING domain); result = 0
Molecule = B8 (RNF31 RING domain); result = 0
Molecule = YPEEVDDDLICHICLQALLDPLDTPCGHTYCTLCLTNFLVEKDFCPMDRKPLVLQHCKK (LNX1 RING domain (UniProt Q8TBB1)); result = 0
